Assay results from different studies.
Parts stem from different laboratories: compare values within a part only. Changes are numbered by the printed parent chain.

Set 1
Target: ABI1, truncated, D143A, DHFR fusion (Arabidopsis thaliana)
Method: DHFR PCA, deep sequencing
Matrix: yeast
Notes: methotrexate growth selection, single substitutions
With: (+)-ABA 0.39 µM
Reference: wild-type fitted maximum
Reading: higher = stronger binding
Starting sequence: PYL1, truncated, DHFR fusion (Arabidopsis thaliana); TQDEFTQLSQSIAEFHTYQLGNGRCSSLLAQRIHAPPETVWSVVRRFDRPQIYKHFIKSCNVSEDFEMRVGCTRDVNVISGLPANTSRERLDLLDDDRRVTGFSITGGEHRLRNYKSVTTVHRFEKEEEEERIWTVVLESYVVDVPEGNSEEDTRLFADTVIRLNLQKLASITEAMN; partner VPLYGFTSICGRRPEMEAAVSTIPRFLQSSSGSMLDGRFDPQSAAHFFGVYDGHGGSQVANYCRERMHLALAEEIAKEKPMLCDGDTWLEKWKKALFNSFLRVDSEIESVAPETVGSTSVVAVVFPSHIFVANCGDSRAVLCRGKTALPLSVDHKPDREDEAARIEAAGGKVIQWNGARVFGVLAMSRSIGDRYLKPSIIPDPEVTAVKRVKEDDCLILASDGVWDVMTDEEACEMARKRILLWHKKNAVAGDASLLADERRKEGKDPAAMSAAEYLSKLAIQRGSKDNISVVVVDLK
| Substitution | relative binding score |
| --- | --- |
| S63P | 53.6% |
| S11K | 9.73% |
| L156D | -13.7% |
| E139Y | 12.2% |
| E130Q | 49% |
| V118C | 25.7% |
| P36S | 38.7% |
| T120R | -10.2% |
| T135G | 4.49% |
| M68N | 11.6% |

Set 2
Substance: PhoQ, residues 284 288 289 292 302 303 TLMATV
Method: Sort-seq
Refers to: YFP reporter
Matrix: E. coli
Notes: PhoQ-PhoP variant library
With: 10 µM Mg2+
Reference: high Mg2+ state
Reading: higher = stronger signaling
| target | fold induction |
| --- | --- |
| PhoP, residues 12 14 15 18 19 LFHKL (Escherichia coli, UniProt P23836) | 0.774 |
| PhoP, residues 12 14 15 18 19 QQAYL (Escherichia coli, UniProt P23836) | 2.72 |
| PhoP, residues 12 14 15 18 19 GMGLL (Escherichia coli, UniProt P23836) | 3.06 |

Set 3
Target: Protein max, full length (MAX, Homo sapiens, UniProt P61244-2, residues 1-151)
Method: protein-binding microarray
Form: double-stranded DNA, one strand shown
Matrix: in vitro
Concentration: not given
Notes: k-mer, scored over probes, only values ≥0.25
Reading: higher = stronger binding
| Strand | E-score |
| --- | --- |
| CATGTCCC | 0.265 |
| ACCACGAT | 0.287 |
| GCACAAGC | 0.27 |
| AACCAACG | 0.254 |
| ACCATGCT | 0.445 |
| ACACGCTA | 0.34 |
| CGTGCGGA | 0.319 |
| GCGTGACC | 0.42 |
| GCGCCACC | 0.27 |
| CTCGCACA | 0.256 |

Set 4
Target: CCND2, cyclin fold, Cln2 fusion (human)
Method: yeast growth competition, sequencing
Matrix: yeast
Notes: weak parent motif
Reference: not given
Reading: higher = stronger binding
Starting sequence: RBL2 docking peptide (human); STTRRRLFVENDS; partner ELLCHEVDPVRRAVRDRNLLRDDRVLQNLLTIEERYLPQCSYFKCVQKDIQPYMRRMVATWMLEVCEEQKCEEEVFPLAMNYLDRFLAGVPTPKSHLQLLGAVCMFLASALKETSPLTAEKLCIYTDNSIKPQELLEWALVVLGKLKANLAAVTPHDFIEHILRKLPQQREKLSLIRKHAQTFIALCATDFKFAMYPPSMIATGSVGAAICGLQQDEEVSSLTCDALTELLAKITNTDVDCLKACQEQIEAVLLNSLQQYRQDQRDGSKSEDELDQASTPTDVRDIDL
| Substitution | normalised enrichment score |
| --- | --- |
| STTRIRLFVENDS [R5I] | 0.277 |
| STTRRRLFVEEDS [N11E] | -0.34 |
| STTRRRLFEENDS [V9E] | 0.144 |
| STTRRRLFVHNDS [E10H] | 0.209 |
| SITRRRLFVENDS [T2I] | 0.0467 |
| STTRRRFFVENDS [L7F] | 0.298 |
| STTRRRLFVEYDS [N11Y] | 0.356 |

Some of these lines once more (set 1):
| Substitution | relative binding score |
| --- | --- |
| S11K | 9.73% |
| L156D | -13.7% |
| E139Y | 12.2% |
| E130Q | 49% |
